Measurements from different studies.
Lines come from different studies, so protocols differ.
Chain of UniProt P29376 (whole entry, looked up): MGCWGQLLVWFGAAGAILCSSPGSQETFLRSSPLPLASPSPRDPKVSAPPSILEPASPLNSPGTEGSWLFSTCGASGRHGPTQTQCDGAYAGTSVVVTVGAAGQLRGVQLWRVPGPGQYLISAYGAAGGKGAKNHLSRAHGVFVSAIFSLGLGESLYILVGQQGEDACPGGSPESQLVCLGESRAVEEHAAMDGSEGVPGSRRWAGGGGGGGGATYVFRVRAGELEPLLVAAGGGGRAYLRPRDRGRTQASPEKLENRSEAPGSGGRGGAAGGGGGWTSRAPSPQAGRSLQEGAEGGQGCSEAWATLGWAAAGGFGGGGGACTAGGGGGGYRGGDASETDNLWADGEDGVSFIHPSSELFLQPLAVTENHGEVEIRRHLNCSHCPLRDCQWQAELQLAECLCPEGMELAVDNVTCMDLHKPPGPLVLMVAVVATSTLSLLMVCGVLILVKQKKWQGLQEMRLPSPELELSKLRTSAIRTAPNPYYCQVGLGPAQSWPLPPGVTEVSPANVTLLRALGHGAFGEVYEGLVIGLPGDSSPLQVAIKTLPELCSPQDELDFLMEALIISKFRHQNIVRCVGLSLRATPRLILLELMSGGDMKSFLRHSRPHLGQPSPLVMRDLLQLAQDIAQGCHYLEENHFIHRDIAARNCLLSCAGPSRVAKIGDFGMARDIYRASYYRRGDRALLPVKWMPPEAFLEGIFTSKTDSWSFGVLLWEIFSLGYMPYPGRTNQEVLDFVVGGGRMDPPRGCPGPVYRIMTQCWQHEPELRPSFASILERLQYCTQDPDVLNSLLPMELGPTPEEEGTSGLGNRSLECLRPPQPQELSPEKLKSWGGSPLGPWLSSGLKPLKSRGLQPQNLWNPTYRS
Chain of UniProt P48039 (whole entry, looked up): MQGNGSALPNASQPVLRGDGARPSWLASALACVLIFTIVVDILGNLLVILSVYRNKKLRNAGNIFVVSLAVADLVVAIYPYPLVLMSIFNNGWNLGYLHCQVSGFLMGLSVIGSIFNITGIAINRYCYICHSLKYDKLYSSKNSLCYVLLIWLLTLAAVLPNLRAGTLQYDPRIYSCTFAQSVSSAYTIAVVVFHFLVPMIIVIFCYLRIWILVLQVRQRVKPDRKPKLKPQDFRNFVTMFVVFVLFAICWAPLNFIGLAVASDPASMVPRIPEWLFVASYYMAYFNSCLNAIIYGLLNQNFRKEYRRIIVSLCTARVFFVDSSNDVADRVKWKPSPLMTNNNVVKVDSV
Chain of UniProt P07949 (whole entry, unmodified, looked up): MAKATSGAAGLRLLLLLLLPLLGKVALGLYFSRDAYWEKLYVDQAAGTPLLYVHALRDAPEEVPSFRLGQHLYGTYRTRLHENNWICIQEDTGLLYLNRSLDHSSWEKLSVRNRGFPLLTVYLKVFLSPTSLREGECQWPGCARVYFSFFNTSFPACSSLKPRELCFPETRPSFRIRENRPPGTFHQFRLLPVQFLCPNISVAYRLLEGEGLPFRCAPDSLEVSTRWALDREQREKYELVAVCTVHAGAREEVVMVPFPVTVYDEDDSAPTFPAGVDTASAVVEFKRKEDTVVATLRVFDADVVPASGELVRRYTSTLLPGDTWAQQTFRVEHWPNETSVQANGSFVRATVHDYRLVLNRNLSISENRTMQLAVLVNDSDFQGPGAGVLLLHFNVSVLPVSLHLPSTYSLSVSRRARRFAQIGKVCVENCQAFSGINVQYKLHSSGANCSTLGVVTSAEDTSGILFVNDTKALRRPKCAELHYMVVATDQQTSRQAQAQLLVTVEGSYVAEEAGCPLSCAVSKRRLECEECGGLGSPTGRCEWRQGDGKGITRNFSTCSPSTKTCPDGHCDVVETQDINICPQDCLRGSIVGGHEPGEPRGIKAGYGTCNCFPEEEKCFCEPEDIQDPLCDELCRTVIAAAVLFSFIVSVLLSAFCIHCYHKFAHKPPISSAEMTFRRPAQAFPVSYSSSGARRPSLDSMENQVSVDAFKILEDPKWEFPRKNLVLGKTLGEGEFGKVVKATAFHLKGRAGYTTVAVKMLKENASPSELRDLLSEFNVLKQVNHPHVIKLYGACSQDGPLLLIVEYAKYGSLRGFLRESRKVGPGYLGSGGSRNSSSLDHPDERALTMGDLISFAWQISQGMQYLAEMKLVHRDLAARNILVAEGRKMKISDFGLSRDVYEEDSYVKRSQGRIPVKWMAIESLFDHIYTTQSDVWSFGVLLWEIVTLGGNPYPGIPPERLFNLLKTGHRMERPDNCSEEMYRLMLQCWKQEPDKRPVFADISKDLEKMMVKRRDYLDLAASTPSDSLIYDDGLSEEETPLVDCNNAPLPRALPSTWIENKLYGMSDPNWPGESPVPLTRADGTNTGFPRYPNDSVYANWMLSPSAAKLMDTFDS
Chain of UniProt Q86Y07 (whole entry, looked up): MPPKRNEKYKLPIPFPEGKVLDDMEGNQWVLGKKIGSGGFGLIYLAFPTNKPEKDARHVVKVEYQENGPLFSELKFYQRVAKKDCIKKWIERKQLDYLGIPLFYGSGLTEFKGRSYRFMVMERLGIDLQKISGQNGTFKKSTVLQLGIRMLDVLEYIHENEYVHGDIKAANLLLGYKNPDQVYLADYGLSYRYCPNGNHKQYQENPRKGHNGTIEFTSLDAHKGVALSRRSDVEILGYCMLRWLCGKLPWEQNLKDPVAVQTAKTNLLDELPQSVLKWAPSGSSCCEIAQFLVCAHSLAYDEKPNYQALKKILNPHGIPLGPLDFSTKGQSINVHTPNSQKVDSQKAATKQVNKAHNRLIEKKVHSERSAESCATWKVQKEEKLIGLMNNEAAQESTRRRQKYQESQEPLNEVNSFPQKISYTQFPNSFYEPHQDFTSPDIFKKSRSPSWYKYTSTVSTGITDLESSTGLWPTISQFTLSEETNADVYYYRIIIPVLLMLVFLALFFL
Chain of UniProt Q8IY84 (whole entry, looked up): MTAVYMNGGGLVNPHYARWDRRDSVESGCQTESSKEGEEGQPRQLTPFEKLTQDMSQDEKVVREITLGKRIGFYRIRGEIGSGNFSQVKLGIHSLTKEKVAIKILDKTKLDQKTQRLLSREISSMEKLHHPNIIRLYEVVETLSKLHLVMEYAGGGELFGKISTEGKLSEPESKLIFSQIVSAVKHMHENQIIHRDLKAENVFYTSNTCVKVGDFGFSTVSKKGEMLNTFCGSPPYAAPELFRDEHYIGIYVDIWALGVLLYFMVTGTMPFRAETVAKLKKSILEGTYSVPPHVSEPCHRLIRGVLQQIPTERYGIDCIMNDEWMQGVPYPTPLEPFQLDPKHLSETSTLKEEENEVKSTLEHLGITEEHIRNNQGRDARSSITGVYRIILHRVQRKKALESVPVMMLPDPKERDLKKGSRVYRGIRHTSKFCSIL
Chain of UniProt P57059 (whole entry, looked up): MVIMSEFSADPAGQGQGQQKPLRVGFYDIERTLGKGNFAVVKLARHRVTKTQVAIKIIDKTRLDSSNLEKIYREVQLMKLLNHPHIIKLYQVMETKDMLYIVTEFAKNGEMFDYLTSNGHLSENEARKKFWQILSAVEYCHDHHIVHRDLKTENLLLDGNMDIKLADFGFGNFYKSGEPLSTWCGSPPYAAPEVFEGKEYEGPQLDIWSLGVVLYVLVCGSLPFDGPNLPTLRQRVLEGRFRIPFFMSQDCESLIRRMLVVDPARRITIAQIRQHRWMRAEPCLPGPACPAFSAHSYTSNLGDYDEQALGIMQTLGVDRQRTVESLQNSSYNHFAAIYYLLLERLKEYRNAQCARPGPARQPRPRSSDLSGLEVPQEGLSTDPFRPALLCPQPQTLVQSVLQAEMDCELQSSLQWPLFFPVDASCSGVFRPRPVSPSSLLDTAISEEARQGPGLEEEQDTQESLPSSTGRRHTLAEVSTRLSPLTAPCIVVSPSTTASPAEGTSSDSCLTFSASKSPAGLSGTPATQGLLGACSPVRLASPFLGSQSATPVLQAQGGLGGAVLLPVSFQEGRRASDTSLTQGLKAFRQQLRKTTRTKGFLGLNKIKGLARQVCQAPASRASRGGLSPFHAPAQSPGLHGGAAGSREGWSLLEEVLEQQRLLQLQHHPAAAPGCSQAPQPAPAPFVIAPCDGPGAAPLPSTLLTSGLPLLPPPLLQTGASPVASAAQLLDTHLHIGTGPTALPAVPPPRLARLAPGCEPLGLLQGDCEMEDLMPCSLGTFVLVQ
Chain of UniProt P21802 (whole entry, looked up): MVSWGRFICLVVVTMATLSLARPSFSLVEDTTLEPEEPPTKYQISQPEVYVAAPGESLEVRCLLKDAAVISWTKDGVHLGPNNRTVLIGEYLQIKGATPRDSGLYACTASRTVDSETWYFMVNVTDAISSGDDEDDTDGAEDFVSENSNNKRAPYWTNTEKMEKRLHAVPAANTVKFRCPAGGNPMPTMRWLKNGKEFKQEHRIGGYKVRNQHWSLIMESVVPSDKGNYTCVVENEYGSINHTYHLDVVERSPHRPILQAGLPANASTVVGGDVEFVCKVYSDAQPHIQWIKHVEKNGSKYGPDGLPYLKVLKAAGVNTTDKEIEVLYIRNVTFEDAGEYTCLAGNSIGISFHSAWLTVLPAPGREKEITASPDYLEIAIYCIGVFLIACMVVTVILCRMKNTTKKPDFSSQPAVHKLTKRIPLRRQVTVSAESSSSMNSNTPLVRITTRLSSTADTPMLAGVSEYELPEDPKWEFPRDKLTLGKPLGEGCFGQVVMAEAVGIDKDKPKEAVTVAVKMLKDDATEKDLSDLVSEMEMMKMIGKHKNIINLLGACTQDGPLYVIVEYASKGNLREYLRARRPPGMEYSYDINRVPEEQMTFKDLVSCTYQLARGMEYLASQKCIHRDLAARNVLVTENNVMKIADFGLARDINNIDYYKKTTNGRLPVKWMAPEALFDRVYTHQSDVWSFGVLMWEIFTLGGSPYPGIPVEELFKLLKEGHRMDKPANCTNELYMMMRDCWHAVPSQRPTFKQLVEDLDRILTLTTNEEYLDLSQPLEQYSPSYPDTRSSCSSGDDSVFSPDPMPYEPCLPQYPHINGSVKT

COc1cc2c(CCNC(C)=O)c(I)[nH]c2cc1[N+](=O)[O-]
Emax (MTNR1A (Homo sapiens, UniProt P48039); β-arrestin recruitment, agonist; CHO-K1; 90 min): 96%

COc1cc(-c2cncc3c2CN(C)Cc2cc(N4CCNCC4)ccc2-3)cc(OC)c1OC
remaining activity (STK3 (Homo sapiens, UniProt Q13188); enzyme activity, inhibitor; 1 µM): 93%

CN1CC(Oc2cnc(C#N)cc2-c2ccn3nc(NC(=O)C4CC4)cc3c2)C1
inhibition (DYRK3 (Homo sapiens, UniProt O43781); enzyme activity, inhibitor; 1 µM): 8%

C=CC(=O)N1CCC(COCC(=O)N2CCN(c3nc(-c4cnc(N)nc4C(F)F)nc(N4CCOC[C@@H]4C)n3)CC2)CC1
remaining binding (RET (Homo sapiens, UniProt P07949, V804L); binding, competition with immobilised ligand; 1 µM): 82%

CNc1ncc2c(/C=C/C(=O)N3CCC(OC)CC3)nn(Cc3cccc(C(F)(F)F)c3)c2n1
remaining activity (VRK2 (Homo sapiens, UniProt Q86Y07); enzyme activity, inhibitor, radiometric; 1 µM): 112%

Cc1cc([C@@H](C)Nc2ccccc2C(=O)O)c2nc(N3CCC(F)(F)CC3)c(C#N)c(=O)n2c1
remaining binding (FGFR2 (Homo sapiens, UniProt P21802); binding, competition with immobilised ligand; 1 µM): 100%

CCCCC(=O)Nc1ccc(-c2ccc3ncn(CCC)c(=O)c3c2)cn1
remaining binding (NIM1K (Homo sapiens, UniProt Q8IY84); binding, competition with immobilised ligand; 0.5 µM): 100%

C1=C/COCc2cc(ccc2OCCN2CCCC2)Nc2nccc(n2)-c2cccc(c2)COC/1
remaining binding (LTK (Homo sapiens, UniProt P29376); binding; 0.1 µM): 100%

NC/C(=C\F)COc1cccc(Cn2c(=S)[nH]c(=O)c3[nH]cnc32)c1
remaining activity (Lactoperoxidase (LPO, Bos taurus, UniProt P80025); enzyme activity, inhibitor; 5 µM): 60%

Nc1ncnc2occ(-c3ccc(NC(=O)Nc4cc(C(F)(F)F)ccc4F)cc3)c12
remaining signal (FLT3 (Homo sapiens, UniProt P36888, D835Y); cell-free assay, inhibitor; 20 µM): 5.7%

COc1ccnn2ncc(-c3ccnc(N(C)C)n3)c12
remaining binding (SIK1 (Homo sapiens, UniProt P57059); binding; 1 µM): 100%

Some of these lines once more:
Cc1cc([C@@H](C)Nc2ccccc2C(=O)O)c2nc(N3CCC(F)(F)CC3)c(C#N)c(=O)n2c1
remaining binding (FGFR2 (Homo sapiens, UniProt P21802); binding, competition with immobilised ligand; 1 µM): 100%
